Earlier results that unrelated publications cite.
Each numbered part shows a few of the values that one paper quotes. ± gives the spread as reported.
Sequence of UniProt Q9HCR9 (whole entry, looked up): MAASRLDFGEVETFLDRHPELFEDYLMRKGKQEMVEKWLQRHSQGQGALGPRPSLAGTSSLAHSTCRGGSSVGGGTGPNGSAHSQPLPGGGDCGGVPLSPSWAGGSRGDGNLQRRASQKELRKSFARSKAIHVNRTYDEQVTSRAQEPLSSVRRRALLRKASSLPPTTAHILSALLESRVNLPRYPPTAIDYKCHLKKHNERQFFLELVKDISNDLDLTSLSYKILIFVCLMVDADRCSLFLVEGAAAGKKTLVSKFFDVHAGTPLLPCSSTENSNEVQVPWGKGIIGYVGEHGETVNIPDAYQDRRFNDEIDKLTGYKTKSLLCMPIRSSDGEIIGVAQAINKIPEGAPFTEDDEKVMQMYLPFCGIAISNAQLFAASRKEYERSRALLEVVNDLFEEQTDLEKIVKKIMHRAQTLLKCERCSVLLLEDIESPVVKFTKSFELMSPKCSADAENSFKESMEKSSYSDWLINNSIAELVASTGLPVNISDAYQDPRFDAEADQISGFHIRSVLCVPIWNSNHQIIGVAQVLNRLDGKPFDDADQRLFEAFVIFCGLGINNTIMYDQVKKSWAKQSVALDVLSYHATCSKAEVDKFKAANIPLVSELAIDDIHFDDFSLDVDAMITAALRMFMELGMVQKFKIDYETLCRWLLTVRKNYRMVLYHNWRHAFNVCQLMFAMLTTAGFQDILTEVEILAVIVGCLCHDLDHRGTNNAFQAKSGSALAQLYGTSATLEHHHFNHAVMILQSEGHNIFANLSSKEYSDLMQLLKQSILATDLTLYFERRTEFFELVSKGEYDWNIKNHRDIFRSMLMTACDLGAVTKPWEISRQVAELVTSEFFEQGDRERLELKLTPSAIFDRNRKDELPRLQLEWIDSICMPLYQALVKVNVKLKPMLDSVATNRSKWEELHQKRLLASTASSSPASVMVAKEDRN
Sequence of UniProt Q9SQR3 (whole entry, looked up): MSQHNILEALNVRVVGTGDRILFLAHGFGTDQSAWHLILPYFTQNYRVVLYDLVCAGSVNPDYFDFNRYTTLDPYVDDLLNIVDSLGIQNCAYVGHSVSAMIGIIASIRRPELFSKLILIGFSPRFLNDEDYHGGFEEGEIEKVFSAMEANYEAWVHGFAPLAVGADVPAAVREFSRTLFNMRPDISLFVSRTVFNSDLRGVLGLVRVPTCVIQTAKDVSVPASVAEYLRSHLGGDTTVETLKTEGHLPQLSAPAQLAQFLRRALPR

Set 1
Organism: Cryptosporidium parvum
Method: high-throughput screen
Concentration: concentration not given
Quantity: activity
CN1CCN(C2=Nc3cc(Cl)ccc3Nc3ccccc32)CC1: inactive
O=C1NC(=O)C(c2ccccc2)(c2ccccc2)N1: inactive
CC(Cc1ccccc1)(NC(=O)CN)c1ccccc1.Cl (centres unmarked): inactive
CCCCN1CCCC1CNC(=O)c1cc(C#N)c2ccccc2c1OC (centres unmarked): inactive
CN1CCN(C2=Nc3cc(F)ccc3Cc3ccccc32)CC1: inactive
COc1c(N2CCNC(C)C2)c(F)cc2c(=O)c(C(=O)O)cn(C3CC3)c12 (centres unmarked): inactive
CC(=O)CCCCn1c(=O)c2c(ncn2C)n(C)c1=O: inactive
CNCC[C@@H](Oc1ccccc1C)c1ccccc1: inactive
CC[N+](C)(C)c1cccc(O)c1: inactive
N#Cc1ccc(C(c2ccc(C#N)cc2)n2cncn2)cc1: inactive
C[C@]12C=CC(=O)C=C1CC[C@@H]1[C@@H]2[C@@H](O)C[C@@]2(C)[C@H]1CC[C@]2(O)C(=O)CO: inactive
Nc1c2c(nc3c1CCC3)CCCC2: inactive
OCc1cccnc1: inactive
O=C(O)CCNC(=O)c1ccc(/N=N/c2ccc(O)c(C(=O)O)c2)cc1: inactive
OC(Cn1cncn1)(Cn1cncn1)c1ccc(F)cc1F: inactive
CN1C(=O)CC[C@H]1c1cccnc1: inactive
COc1cc([C@@H]2c3cc4c(cc3[C@@H](O[C@@H]3O[C@@H]5CO[C@@H](C)O[C@H]5[C@H](O)[C@H]3O)[C@H]3COC(=O)[C@H]23)OCO4)cc(OC)c1O: inactive
COc1ccc(CC(C)NCC(O)c2ccc(O)c(NC=O)c2)cc1.COc1ccc(CC(C)NCC(O)c2ccc(O)c(NC=O)c2)cc1.O.O.O=C(O)/C=C/C(=O)O (centres unmarked): inactive
Clc1ccc(COC(Cn2ccnc2)c2ccc(Cl)cc2Cl)c(Cl)c1 (centres unmarked): inactive
CCCOc1ccc(C(=O)OCCN(CC)CC)cc1N: inactive
C[C@H]1[C@H](OC(=O)CCC(=O)O)O[C@@H]2O[C@@]3(C)CC[C@H]4[C@H](C)CC[C@@H]1[C@@]24OO3: inactive
CCN(CC)CC#CCOC(=O)C(O)(c1ccccc1)C1CCCCC1 (centres unmarked): inactive
N[C@@H](C(=O)N[C@@H]1C(=O)N2C(C(=O)O)=C(Cl)CS[C@H]12)c1ccccc1: inactive
C=CC[C@@H]1/C=C(\C)C[C@H](C)C[C@H](OC)[C@H]2O[C@@](O)(C(=O)C(=O)N3CCCC[C@H]3C(=O)O[C@H](/C(C)=C/[C@@H]3CC[C@@H](O)[C@H](OC)C3)[C@H](C)[C@@H](O)CC1=O)[C@H](C)C[C@@H]2OC: inactive
NC(=O)N1c2ccccc2CC(=O)c2ccccc21: inactive

Further values, each from its own experiment
O=C1CC2(CCCC2)CC(=O)N1CCCCN1CCN(c2ncccn2)CC1 — IC50 (dopamine transporter): > 10 µM
CCOc1ccc(Cc2cc([C@@H]3O[C@H](CO)[C@@H](O)[C@H](O)[C@H]3O)ccc2Cl)cc1 — Kd (ERRα): 1.99 µM
O=[N+]([O-])c1ccc(O)c2ncccc12 — MBEC (Staphylococcus aureus; biofilm eradication; MRSA BAA-1707): 93.8 µM
NCc1ccc(F)cc1 — pKa (amine, free unbound form): 9.3
Oc1ccc(C=Cc2cc(O)cc(O)c2)cc1 — Kd (unknown plasma membrane protein): 0.22 µM
CN1CC(=O)N2[C@H](c3ccc4c(c3)OCO4)c3[nH]c4ccccc4c3C[C@@H]2C1=O — Tmax (rat; oral, 1 mg/kg): 0.625 ± 0.25 h
Cc1cn[nH]c1 — Cmax (human, plasma; concentration not given, total plasma concentration): 210 µM
C[C@@]1(Cc2ccc(C#N)cc2)C(=O)N(c2cc(Cl)cc(Cl)c2)c2ncc(C(=O)NC3(c4nc(C5CCC5)no4)CC3)n21 — Kd (ITGAL; biochemical): > 1 µM
Cc1ccc(NC(=O)c2ccc(CN3CCN(C)CC3)cc2)cc1Nc1nccc(-c2cncc(-c3oncc3C)c2)n1 — half-life (mouse; 100 mg/kg/day, steady state): 2.6 h
CC(C)[C@H](NC(=O)[C@H](Cc1cscn1)NC(=O)CCc1ccccc1)C(=O)N[C@@H](CCCNC(=N)N)C(=O)c1nc2ccccc2s1 — IC50 (coagulation factor Xa): 0.323 µM
N=C(N)NC(=N)NCCc1ccccc1 — Ki (Escherichia coli dihydrofolate reductase): 170 ± 30 µM
Cc1nc(Cc2cccc(C(F)(F)F)c2)sc1-c1ccc(C(N)=O)nc1 — EC50 (GPR52 human; cellular activity): 1 µM
COc1ccc(CNc2c(CO)cnc3c(C4CC4)cc(C#N)cc23)cc1Cl — IC50 (PDE11A (Homo sapiens, UniProt Q9HCR9)): > 10 µM
C#Cc1cccc(Nc2ncnc3cc(OCCOC)c(OCCOC)cc23)c1 — Cmax (human; intravenous, 150 mg): 1.96 µg/mL
Cc1c(Cl)cccc1Nc1ccccc1C(=O)O — Ki (D14 (Arabidopsis thaliana, UniProt Q9SQR3)): 2.52 µM
CO[C@H]1/C=C/O[C@@]2(C)Oc3c(C)c(O)c4c(O)c(c(/C=N/N5CCN(C)CC5)c(O)c4c3C2=O)NC(=O)/C(C)=C\C=C\[C@H](C)[C@H](O)[C@@H](C)[C@@H](O)[C@@H](C)[C@H](OC(C)=O)[C@@H]1C — IC50 (OATP1B1 and OATP1B3; transport, inhibitor): 1.5 to 2.6 µM
CC(=O)O[C@H]1C(=O)[C@@]2(C)[C@H]([C@H](OC(=O)c3ccccc3)[C@]3(O)C[C@H](OC(=O)[C@H](O)[C@@H](NC(=O)c4ccccc4)c4ccccc4)C(C)=C1C3(C)C)[C@]1(OC(C)=O)CO[C@@H]1C[C@@H]2O — resistance factor (PC-3-TxR; relative to: PC-3-TxR over PC-3): 43.4 fold
Cc1cn([C@H]2C=C[C@@H](CO)O2)c(=O)[nH]c1=O — Cmax (human, plasma; concentration not given, total plasma concentration): 2.4 µM
Nc1c(C(=O)NCc2ccc(C(=O)NCCCC3CCCCC3)cc2)cnn1-c1ccccc1 — IC50 (MAPK11 (human); enzyme activity): 0.032 µM
CC(C)c1c(C(=O)Nc2ccccc2)c(-c2ccccc2)c(-c2ccc(F)cc2)n1CC[C@@H]1C[C@@H](O)CC(=O)O1 — plasma stability (plasma; acid form back-conversion): unstable
Cc1cc(C)c(CNC(=O)c2cc(Cl)c3c(c2C)O[C@@](C)([C@H]2CC[C@H](N(C)C)CC2)O3)c(=O)[nH]1 — total AUCinf increase (human; dose not given, added: itraconazole, strong CYP3A and P-gp inhibitor; relative to: without itraconazole): ~4 fold
CC(=O)O[C@@]12CO[C@@H]1C[C@H](O)[C@@]1(C)C(=O)[C@H](O)C3=C(C)[C@@H](OC(=O)[C@H](O)[C@@H](NC(=O)OC(C)(C)C)c4ccccc4)C[C@@](O)([C@@H](OC(=O)c4ccccc4)[C@H]21)C3(C)C — IC50 (PC3-TxR): 0.0282 µM
Nc1ccc(C(=O)N[C@@H](CCC(=O)O)C(=O)O)cc1 — Ki (Escherichia coli dihydrofolate reductase): 1800 ± 100 µM
NCc1ccc(Br)cc1 — pKa (amine, free unbound form): 9.1
CO[C@H]1/C=C/O[C@@]2(C)Oc3c(C)c(O)c4c(O)c(c(/C=N/N5CCN(C)CC5)c(O)c4c3C2=O)NC(=O)/C(C)=C\C=C\[C@H](C)[C@H](O)[C@@H](C)[C@@H](O)[C@@H](C)[C@H](OC(C)=O)[C@@H]1C — Ki (OATP (rat); inhibitor): 1 to 2 µM

For quick reference, copied from above (further values, each from its own experiment):
Cc1cc(C)c(CNC(=O)c2cc(Cl)c3c(c2C)O[C@@](C)([C@H]2CC[C@H](N(C)C)CC2)O3)c(=O)[nH]1 — total AUCinf increase (human; dose not given, added: itraconazole, strong CYP3A and P-gp inhibitor; relative to: without itraconazole): ~4 fold
Oc1ccc(C=Cc2cc(O)cc(O)c2)cc1 — Kd (unknown plasma membrane protein): 0.22 µM
C#Cc1cccc(Nc2ncnc3cc(OCCOC)c(OCCOC)cc23)c1 — Cmax (human; intravenous, 150 mg): 1.96 µg/mL
